# Literature values that unrelated publications cite.
# Amino acid sequences for entries named in this document (tags omitted). A change or cut given only in a name is not applied to a line headed by its entry. Residues count along the entry.
# UniProt P19256, 29-250 limits assumed: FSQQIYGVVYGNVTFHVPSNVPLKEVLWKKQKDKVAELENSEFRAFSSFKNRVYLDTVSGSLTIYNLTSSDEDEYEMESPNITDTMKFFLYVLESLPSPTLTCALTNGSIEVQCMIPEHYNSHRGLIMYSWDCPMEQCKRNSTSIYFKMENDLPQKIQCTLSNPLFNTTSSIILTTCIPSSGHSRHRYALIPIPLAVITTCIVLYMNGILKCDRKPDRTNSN
# UniProt P30968, whole entry: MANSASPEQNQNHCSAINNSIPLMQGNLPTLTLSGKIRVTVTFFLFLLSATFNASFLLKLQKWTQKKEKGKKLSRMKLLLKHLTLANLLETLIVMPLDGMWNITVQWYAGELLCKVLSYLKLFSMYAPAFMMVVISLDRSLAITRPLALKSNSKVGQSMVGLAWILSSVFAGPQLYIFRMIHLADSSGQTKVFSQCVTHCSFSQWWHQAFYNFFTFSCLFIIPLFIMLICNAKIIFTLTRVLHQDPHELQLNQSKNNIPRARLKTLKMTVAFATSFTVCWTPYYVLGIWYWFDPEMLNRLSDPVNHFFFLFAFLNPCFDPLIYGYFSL
# UniProt Q9NZQ7, whole entry, looked up: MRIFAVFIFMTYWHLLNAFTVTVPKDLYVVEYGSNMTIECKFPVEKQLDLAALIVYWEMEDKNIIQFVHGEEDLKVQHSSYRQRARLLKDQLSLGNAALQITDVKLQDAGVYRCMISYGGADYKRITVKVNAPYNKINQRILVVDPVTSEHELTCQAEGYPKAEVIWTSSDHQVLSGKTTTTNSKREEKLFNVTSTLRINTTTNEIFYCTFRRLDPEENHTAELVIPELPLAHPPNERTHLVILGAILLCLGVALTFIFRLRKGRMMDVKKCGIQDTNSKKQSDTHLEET
# UniProt Q01727, whole entry: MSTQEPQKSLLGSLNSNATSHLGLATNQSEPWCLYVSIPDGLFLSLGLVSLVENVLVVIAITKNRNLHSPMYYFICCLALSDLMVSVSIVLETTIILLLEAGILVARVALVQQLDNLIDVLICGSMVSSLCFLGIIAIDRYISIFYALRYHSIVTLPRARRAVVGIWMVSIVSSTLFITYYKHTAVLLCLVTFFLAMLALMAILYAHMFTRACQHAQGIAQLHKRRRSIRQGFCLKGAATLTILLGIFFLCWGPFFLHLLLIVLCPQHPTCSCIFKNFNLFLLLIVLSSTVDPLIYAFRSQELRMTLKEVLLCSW
# UniProt O08967, 261-387 limits assumed: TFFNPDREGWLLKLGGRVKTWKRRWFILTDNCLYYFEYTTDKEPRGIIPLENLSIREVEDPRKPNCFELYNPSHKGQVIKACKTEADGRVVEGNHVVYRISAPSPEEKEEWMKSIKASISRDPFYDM
# UniProt P00533, whole entry C797S/L858R, looked up: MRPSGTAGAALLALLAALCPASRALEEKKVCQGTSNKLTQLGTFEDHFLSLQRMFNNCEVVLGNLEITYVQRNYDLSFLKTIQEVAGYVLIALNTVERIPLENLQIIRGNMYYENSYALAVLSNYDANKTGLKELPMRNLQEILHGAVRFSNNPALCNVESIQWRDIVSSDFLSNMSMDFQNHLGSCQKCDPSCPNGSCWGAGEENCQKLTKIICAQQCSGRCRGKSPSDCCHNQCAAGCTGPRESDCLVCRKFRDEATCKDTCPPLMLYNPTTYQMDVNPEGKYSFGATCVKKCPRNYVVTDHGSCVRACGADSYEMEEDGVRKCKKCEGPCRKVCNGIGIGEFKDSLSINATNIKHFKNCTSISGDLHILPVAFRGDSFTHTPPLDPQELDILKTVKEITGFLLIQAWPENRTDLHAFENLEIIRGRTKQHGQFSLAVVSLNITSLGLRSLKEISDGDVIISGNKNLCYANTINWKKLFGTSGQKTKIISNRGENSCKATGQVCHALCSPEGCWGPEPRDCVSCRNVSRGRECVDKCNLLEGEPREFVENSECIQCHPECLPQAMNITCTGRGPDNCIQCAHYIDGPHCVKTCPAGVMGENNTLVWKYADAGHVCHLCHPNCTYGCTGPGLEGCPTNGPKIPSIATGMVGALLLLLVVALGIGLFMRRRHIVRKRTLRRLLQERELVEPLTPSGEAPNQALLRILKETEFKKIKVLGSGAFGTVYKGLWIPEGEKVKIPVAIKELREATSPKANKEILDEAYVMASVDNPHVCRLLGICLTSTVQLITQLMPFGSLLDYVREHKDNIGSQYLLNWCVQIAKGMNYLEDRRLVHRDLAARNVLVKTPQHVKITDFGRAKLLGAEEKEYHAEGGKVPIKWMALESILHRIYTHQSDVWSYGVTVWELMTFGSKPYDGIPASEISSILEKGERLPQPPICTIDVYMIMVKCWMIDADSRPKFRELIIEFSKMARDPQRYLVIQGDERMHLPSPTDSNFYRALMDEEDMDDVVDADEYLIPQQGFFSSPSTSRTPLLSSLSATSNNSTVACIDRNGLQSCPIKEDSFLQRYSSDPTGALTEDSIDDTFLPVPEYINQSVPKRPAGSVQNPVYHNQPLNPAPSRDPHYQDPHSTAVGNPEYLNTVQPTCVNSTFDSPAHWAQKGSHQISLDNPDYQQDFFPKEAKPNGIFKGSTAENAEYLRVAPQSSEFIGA
# UniProt A0A0H2ZM50, 1-441: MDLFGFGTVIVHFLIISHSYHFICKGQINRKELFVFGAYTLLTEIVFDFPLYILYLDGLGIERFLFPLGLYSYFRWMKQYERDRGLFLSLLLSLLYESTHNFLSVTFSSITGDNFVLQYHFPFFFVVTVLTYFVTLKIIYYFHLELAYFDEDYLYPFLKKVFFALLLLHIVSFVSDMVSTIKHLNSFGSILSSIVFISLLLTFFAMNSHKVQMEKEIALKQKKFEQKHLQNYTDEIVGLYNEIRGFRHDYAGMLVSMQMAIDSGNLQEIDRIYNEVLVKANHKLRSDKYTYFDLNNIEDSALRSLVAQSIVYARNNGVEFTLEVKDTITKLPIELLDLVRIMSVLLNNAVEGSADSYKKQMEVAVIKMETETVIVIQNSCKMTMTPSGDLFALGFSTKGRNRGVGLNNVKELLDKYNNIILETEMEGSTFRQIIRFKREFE
# UniProt P29477, whole entry: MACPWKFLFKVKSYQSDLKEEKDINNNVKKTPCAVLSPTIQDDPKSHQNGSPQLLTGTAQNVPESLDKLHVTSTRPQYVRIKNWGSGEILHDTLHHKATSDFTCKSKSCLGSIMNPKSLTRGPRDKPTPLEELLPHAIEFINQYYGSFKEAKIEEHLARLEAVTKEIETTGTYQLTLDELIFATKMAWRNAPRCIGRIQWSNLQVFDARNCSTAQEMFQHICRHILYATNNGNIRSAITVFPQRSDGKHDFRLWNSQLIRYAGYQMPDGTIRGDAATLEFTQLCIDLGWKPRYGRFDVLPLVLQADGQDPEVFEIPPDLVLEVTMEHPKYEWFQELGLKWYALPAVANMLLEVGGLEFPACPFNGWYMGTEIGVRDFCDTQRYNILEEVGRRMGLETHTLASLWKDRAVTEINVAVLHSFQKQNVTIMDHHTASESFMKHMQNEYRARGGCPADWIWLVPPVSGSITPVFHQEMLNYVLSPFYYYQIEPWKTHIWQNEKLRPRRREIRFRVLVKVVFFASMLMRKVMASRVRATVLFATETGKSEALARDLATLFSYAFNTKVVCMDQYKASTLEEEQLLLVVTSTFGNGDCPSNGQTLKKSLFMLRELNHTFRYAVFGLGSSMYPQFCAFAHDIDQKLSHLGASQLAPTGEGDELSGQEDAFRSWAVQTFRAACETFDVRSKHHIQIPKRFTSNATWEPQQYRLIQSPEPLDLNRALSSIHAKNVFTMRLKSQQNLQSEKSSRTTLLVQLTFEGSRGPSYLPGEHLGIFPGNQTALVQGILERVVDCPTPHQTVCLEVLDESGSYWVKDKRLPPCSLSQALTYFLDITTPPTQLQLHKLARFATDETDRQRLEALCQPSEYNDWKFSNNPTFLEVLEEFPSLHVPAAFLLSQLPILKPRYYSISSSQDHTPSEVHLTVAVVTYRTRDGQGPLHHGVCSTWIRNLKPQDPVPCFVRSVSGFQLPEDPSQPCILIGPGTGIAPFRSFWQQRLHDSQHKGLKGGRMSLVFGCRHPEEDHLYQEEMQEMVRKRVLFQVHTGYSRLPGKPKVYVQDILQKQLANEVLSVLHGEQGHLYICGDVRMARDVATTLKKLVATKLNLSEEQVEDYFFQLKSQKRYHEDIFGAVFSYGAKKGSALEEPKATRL
# UniProt P06729, 25-351 partner limits assumed: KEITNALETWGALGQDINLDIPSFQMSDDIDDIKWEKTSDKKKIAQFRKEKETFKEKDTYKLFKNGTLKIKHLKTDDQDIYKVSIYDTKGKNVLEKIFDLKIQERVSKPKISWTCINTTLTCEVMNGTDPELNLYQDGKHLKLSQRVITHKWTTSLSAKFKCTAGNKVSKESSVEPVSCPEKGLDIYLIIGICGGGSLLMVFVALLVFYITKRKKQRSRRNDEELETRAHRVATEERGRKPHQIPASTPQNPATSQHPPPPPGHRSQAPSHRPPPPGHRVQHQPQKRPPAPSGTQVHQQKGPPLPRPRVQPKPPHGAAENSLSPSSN
# Each line is one published result; not all experiments were run side by side. ± gives the spread as reported.
# CD58 with CD2: Lymphocyte function-associated antigen 3, with CD2 (CD58, Homo sapiens, UniProt P19256)
SMILES,tested on,test,test system,setting,quantity,result
COc1ccc(NC(=O)Cn2c(-c3cscn3)nc3ccccc32)cc1,"Inosine-5'-monophosphate dehydrogenase 2 (IMPDH2, Homo sapiens, UniProt P12268)","enzyme activity, inhibitor",,lower bound,IC50,≥ 200000 nM
CC(C)C[C@H](NC(=O)[C@@H](CCCCNC(=O)CCCCCNC(=O)CN1CCN(CC(=O)O)CCN(CC(=O)O)CCN(CC(=O)O)CC1)NC(=O)[C@H](Cc1ccc(O)cc1)NC(=O)[C@H](CO)NC(=O)[C@H](Cc1c[nH]c2ccccc12)NC(=O)[C@H](Cc1cnc[nH]1)NC(=O)[C@@H]1CCC(=O)N1)C(=O)N[C@@H](CCCNC(=N)N)C(=O)N1CCC[C@H]1C(=O)NCC(N)=O,"Gonadotropin-releasing hormone receptor (GNRHR, Homo sapiens, UniProt P30968)",binding,,,IC50,36.1 nM
CCCC[C@H]1C(=O)N(C)CC(=O)N[C@@H](CC(=O)O)C(=O)N[C@@H](C(C)C)C(=O)N(C)[C@@H](Cc2ccccc2)C(=O)N[C@@H](Cc2ccc(O)cc2)C(=O)N(C)CC(=O)N[C@@H](Cc2c[nH]c3ccccc23)C(=O)N[C@@H](Cc2ccc(O)cc2)C(=O)N[C@@H](CC(C)C)C(=O)N[C@H](C(=O)NCC(N)=O)CSCC(=O)N[C@@H](Cc2ccccc2)C(=O)N(C)[C@@H](Cc2ccccc2)C(=O)N1C,"Programmed cell death 1 ligand 1 (CD274, Homo sapiens, UniProt Q9NZQ7)",binding,,,EC50,293 nM
O=C(/C=C/c1nc2ccccc2[nH]1)c1c(-c2ccccc2)c2cc(Cl)ccc2[nH]c1=O,,,mouse melanoma xenograft,intraperitoneal,dose-limiting toxicity dose,5 mg/kg
CC[C@H](C)[C@H](NC(=O)[C@H](CCCNC(=N)N)NC(=O)[C@@H](NC(=O)CNC(C)=O)[C@@H](C)O)C(=O)N[C@H](C(=O)N[C@@H](Cc1ccc(O)cc1)C(=O)N[C@@H](CC(=O)O)C(=O)N[C@@H](CCCNC(=N)N)C(=O)N[C@@]1(C)CCCC=CCCC[C@@](C)(C(=O)N[C@@H](CS)C(=O)N[C@@H](CCCNC(=N)N)C(=O)N[C@@H](CC(N)=O)C(N)=O)NC(=O)[C@H](CCSC)NC(=O)[C@H](CC(C)C)NC(=O)[C@H](Cc2ccccc2)NC1=O)[C@@H](C)CC,,circular dichroism,sodium phosphate buffer,"pH 7.4, 25 °C, buffer 5 mM",helicity,44%
CC(C)[C@H](NC(=O)[C@@H]1CCCN1C(=O)[C@H](CCCNC(=N)N)NC(=O)[C@H](CS)NC(=O)[C@H](Cc1c[nH]c2ccccc12)NC(=O)[C@H](CCCNC(=N)N)NC(=O)[C@@H](Cc1ccccc1)NC(=O)[C@H](Cc1c[nH]cn1)NC(=O)[C@H](CCC(=O)O)NC(=O)[C@H](CS)NC(=O)[C@H](CS)NC(=O)[C@H](CCCNC(=N)N)NC(=O)[C@@H]1CC(=O)N[C@@H](CCCNC(=N)N)C(=O)NCC(=O)N[C@@H](CC(=O)O)C(=O)N[C@H](Cc2ccc(O)cc2)C(=O)N1)C(N)=O,"Melanocyte-stimulating hormone receptor (Mc1r, Mus musculus, UniProt Q01727)",,B16-F1,,IC50,0.7 nM
CCCCCCCC(=O)OC[C@H](COP(=O)(O)O[C@H]1[C@H](O)[C@@H](OP(=O)(O)O)[C@H](OP(=O)(O)O)[C@@H](OP(=O)(O)O)[C@H]1O)OC(=O)CCCCCCC,"Cytohesin-3, PH domain (Cyth3, Mus musculus, UniProt O08967)",SPR,,,Kd,59 to 170 nM
C/C(=N\Nc1nc2ccccc2n1C)c1ccccn1,,,,concentration not given,terminal half-life,60 min
COc1cc(N2CCC(N3CCN(C)CC3)CC2)ccc1Nc1ncc(Cl)c(Nc2ccccc2NS(C)(=O)=O)n1,"Epidermal growth factor receptor (EGFR, Homo sapiens, UniProt P00533, C797S/L858R)","kinase activity, inhibitor, biochemical kinase",,together with: ATP at Km,IC50,5.35 nM
O=C(Nc1ccc(-c2nc3ccccc3s2)cc1)C1CCN(S(=O)(=O)c2ccccc2Cl)CC1,,,rat liver microsomes,,half-life,8.82 min
CC[C@H](C)[C@H](NC(=O)[C@H](Cc1ccccc1)NC(=O)[C@H](CC(=O)O)NC(=O)[C@H](CCCNC(=N)N)NC(=O)[C@H](Cc1ccccc1)NC(=O)[C@H](Cc1ccccc1)NC(=O)[C@H](CCCCN)NC(=O)[C@H](CO)NC(=O)[C@H](CC(C)C)NC(=O)[C@H](CCCNC(=N)N)NC(=O)[C@H](CCSC)NC(=O)[C@H](C)N)C(=O)N[C@@H](CC(C)C)C(=O)N[C@@H](CCC(N)=O)C(=O)N[C@@H](CCCNC(=N)N)C(=O)N[C@@H](CCCCN)C(=O)N[C@@H](CCCCN)C(=O)O,"Competence histidine kinase ComD (Streptococcus pneumoniae serotype 2, UniProt A0A0H2ZM50)","ComD1 signalling, competitive inhibitor, reporter gene","Streptococcus pneumoniae, D39 pcomX::lacZ",,IC50,86 nM
Cc1cc(N)nc(CCc2cccc(C(O)Cc3cc(C)cc(N)n3)c2)c1 (stereo not drawn),"Nitric oxide synthase, inducible (Nos2, Mus musculus, UniProt P29477)",,,,Ki,1450 nM
NS(=O)(=O)c1c(F)c(F)c(SCCO)c(F)c1NC1CCCCCCC1,,,,sulfonamide group,pKa,8.8
C[C@@H]1NC(=O)[C@H](CCCCN)NC(=O)[C@@H]2CSSC[C@H](NC(=O)[C@H](CO)NC(=O)[C@@H]3CCCN3C(=O)[C@@H]3CCCN3C(=O)[C@H](C)NC(=O)[C@H](CO)NC1=O)C(=O)N[C@@H](Cc1ccc(O)cc1)C(=O)N[C@@H](CC(=O)O)C(=O)NCC(=O)N[C@@H](CC(=O)O)C(=O)N[C@@H](CC(=O)O)C(=O)N2,CD58 with CD2,"cell adhesion, inhibitor",Jurkat on OVCAR-3,,IC50,43 ± 25 nM
C[C@@H]1NC(=O)[C@@H]2CSSC[C@H](NC(=O)[C@H](CC(=O)O)NC(=O)[C@H](CC(=O)O)NC(=O)CNC(=O)[C@H](CC(=O)O)NC(=O)[C@H](Cc3ccc(O)cc3)NC1=O)C(=O)N[C@@H](CCCCN)C(=O)N[C@@H](CO)C(=O)N[C@@H](C)C(=O)N1CCC[C@H]1C(=O)N1CCC[C@H]1C(=O)N[C@@H](CO)C(=O)N2,CD58 with CD2,"lymphocyte adhesion, inhibitor",Jurkat on HFLS-RA cells,,IC50,37 ± 1 nM

# A few entries again:
SMILES,tested on,test,test system,setting,quantity,result
CC(C)C[C@H](NC(=O)[C@@H](CCCCNC(=O)CCCCCNC(=O)CN1CCN(CC(=O)O)CCN(CC(=O)O)CCN(CC(=O)O)CC1)NC(=O)[C@H](Cc1ccc(O)cc1)NC(=O)[C@H](CO)NC(=O)[C@H](Cc1c[nH]c2ccccc12)NC(=O)[C@H](Cc1cnc[nH]1)NC(=O)[C@@H]1CCC(=O)N1)C(=O)N[C@@H](CCCNC(=N)N)C(=O)N1CCC[C@H]1C(=O)NCC(N)=O,"Gonadotropin-releasing hormone receptor (GNRHR, Homo sapiens, UniProt P30968)",binding,,,IC50,36.1 nM
C/C(=N\Nc1nc2ccccc2n1C)c1ccccn1,,,,concentration not given,terminal half-life,60 min
